{"data": "Assay results pooled from the literature", "note": "Each line is one published result; not all experiments were run side by side. Numbers after ± are the reported error."}
{"SMILES": "COc1c(N2CC3CCCNC3C2)c(F)cc2c(=O)c(C(=O)OCc3ccc([N+](=O)[O-])cc3)cn(C3CC3)c12 (stereo not drawn)", "test": "cyclic voltammetry", "test system": "anhydrous acetonitrile", "conditions": "concentration not given", "how to read": "reference: Ag/AgCl", "measurement": "reduction potential", "result": "-0.96 V"}
{"SMILES": "CC1(C)C(=O)N(c2ccc(C#N)c(C(F)(F)F)c2)C(=S)N1c1ccc(C(=O)O)c(F)c1", "test system": "male human, plasma", "conditions": "oral, 80 mg, single dose, fasted", "measurement": "MRT", "result": "298 h"}
{"SMILES": "CC[C@H](C)[C@H](NC(=O)[C@H](CCCCN)NC(=O)CNC(=O)[C@H](CC(C)C)NC(=O)[C@H](Cc1ccccc1)NC(=O)[C@H](CCCCN)NC(=O)[C@H](CO)NC(=O)[C@H](Cc1ccccc1)NC(=O)[C@H](Cc1c[nH]c2ccccc12)NC(=O)[C@H](CCC(N)=O)NC(=O)[C@@H](NC(=O)[C@H](Cc1ccccc1)NC(=O)CCCCCNC(=O)CN1CCN(CC(=O)O)CCN(CC(=O)O)CCN(CC(=O)O)CC1)C(C)C)C(=O)N[C@@H](CCC(=O)O)C(=O)N1CCC[C@H]1C(=O)N[C@@H](CC(=O)O)C(=O)N[C@H](C(=O)N[C@@H](CO)C(=O)N[C@@H](CCC(N)=O)C(=O)N[C@H](C(=O)N[C@@H](CCC(N)=O)C(=O)N[C@@H](CC(=O)O)C(=O)N1CCC[C@H]1C(=O)N[C@@H](CC(N)=O)C(=O)N[C@@H](CC(=O)O)C(=O)N[C@@H](CCC(N)=O)C(=O)N[C@@H](Cc1ccc(O)cc1)C(=O)N[C@@H](CCC(=O)O)C(=O)N1CCC[C@H]1C(=O)N[C@@H](Cc1ccccc1)C(=O)O)C(C)C)C(C)C [copper-64 labelled]", "test system": "C57BL/6 mice, liver", "conditions": "with: LPS 0.1 mg/kg intratracheal", "measurement": "tissue uptake", "result": "8.65 ± 0.7 %ID/g"}
{"SMILES": "CC(C)[C@H](NC(=O)[C@@H](NC(=O)[C@H](CCCNC(=N)N)NC(=O)[C@H](CCCNC(=N)N)NC(=O)[C@H](CCCNC(=N)N)NC(=O)[C@H](CCC(N)=O)NC(=O)[C@H](CCCNC(=N)N)NC(=O)[C@H](CCCNC(=N)N)NC(=O)[C@H](CCCCN)NC(=O)[C@H](CCCCN)NC(=O)[C@H](CCCNC(=N)N)NC(=O)CN)[C@@H](C)O)C(=O)N[C@H](C(=O)N[C@@H](CO)C(=O)N1CCC[C@H]1C(=O)O)[C@@H](C)O", "test system": "ICR mouse, male, left kidney", "conditions": "intranasal, 10 mg/kg daily, 4 weeks", "measurement": "kidney weight", "result": "0.292 ± 0.016 g"}
{"SMILES": "COc1cnc2cccc(N3CCc4c(cc(Cn5ccnc5)cc4-c4cn(C)nc4C(F)(F)F)C3=O)c2c1", "test system": "CD-1 mice", "conditions": "intraperitoneal, 150 mg/kg once daily, day 2", "measurement": "body weight", "result": "28.7 ± 2.1 g"}
{"SMILES": "O=C1NC2(CC2)COc2ncc(F)cc2[C@H]2COCCN2c2ccn3ncc1c3n2", "test system": "Sprague-Dawley rat, female, heart", "conditions": "oral, 10 mg/kg/day, 4 weeks, end of treatment", "measurement": "organ-to-brain weight ratio", "result": "67.1 ± 8.36%"}
{"SMILES": "C=CC(=O)Nc1cccc(Cn2ncc3cnc(Nc4cnn(CCOC)c4)nc32)c1", "test system": "male Sprague-Dawley rat", "conditions": "oral, 180 mg/kg/day, day 28, 28-day subacute toxicity", "measurement": "serum TG", "result": "0.99 ± 0.65 mM"}
{"SMILES": "CC[C@H](C)[C@H](NC(=O)[C@H](C)NC(=O)[C@H](C)NC(=O)[C@H](CCC(N)=O)NC(=O)CNC(=O)[C@H](CC(C)C)NC(=O)[C@H](Cc1c[nH]cn1)NC(=O)[C@H](CCCCN)NC(=O)[C@H](C)NC(=O)CNC(=O)[C@H](CCCCN)NC(=O)[C@H](CCCNC(=N)N)NC(=O)[C@H](CC(C)C)NC(=O)[C@H](Cc1c[nH]c2ccccc12)NC(=O)[C@H](CCCCN)NC(=O)[C@H](CCCCN)NC(=O)[C@H](Cc1c[nH]c2ccccc12)NC(=O)CN)C(=O)N[C@@H](CCCCN)C(N)=O", "test system": "zebrafish embryos 28 hpf, E3 medium", "conditions": "1 h", "measurement": "acute toxic concentration", "result": "25 µM"}
{"SMILES": "C[C@H](O)[C@@H](NC(=O)[C@H]1CCCN1C(=O)[C@@H](CCCCN)NC(=O)[C@@H](CO)NC(=O)[C@@H](Cc1ccc(O)cc1)NC(=O)[C@@H](CC(N)=O)NC(=O)CCOCCOCCOCCNC(=O)CN1CCN(CC(=O)O)CCN(CC(=O)O)CCN(CC(=O)O)CC1)C(=O)N[C@H](CC(=O)O)C(=O)N[C@H](CCCNC(=N)N)C(=O)N[C@H](CCC(N)=O)C(=O)N[C@H](Cc1ccc(O)cc1)C(=O)N[C@H](Cc1c[nH]cn1)C(=O)N[C@H](Cc1ccccc1)C(N)=O [copper-64 labelled]", "test system": "C57BL/6J mice, stomach", "conditions": "intravenous, 1.85 MBq, 1 h, radiolabelled", "measurement": "tissue uptake", "result": "0.49 ± 0.1 %ID/g"}
{"SMILES": "COc1ccc(CNc2ccc3c(c2)S(=O)(=O)C=C3)cc1", "test system": "male C57BL/6 mice, blood", "conditions": "intraperitoneal, 10 mg/kg, day 8, group average", "measurement": "haemoglobin", "result": "167 g/L"}
{"SMILES": "N=C(N)NCCC[C@@H](NC(=O)[C@H](N)Cc1c[nH]c2ccccc12)C(=O)N[C@H](CCCCN)C(=O)N[C@H](Cc1c[nH]c2ccccc12)C(=O)N[C@H](CCCNC(=N)N)C(=O)N[C@H](CCCCN)C(=O)N[C@H](Cc1c[nH]c2ccccc12)C(=O)N[C@H](CCCNC(=N)N)C(=O)N[C@H](CCCCN)C(=O)N[C@H](Cc1c[nH]c2ccccc12)C(=O)N[C@H](CCCNC(=N)N)C(=O)N[C@H](CCCCN)C(N)=O", "test system": "mouse, serum", "conditions": "30 mg/kg", "measurement": "NGAL level", "result": "44.8 ng/mL"}
{"SMILES": "CSCC[C@@H]1NC(=O)[C@H](C(C)C)NC(=O)[C@H](CCCNC(=N)N)NC(=O)[C@@H]2CCCN2C(=O)CNC(=O)[C@@H](NC(=O)CNC(=O)[C@H](CO)NC(=O)CNC(=O)[C@H](CO)NC(=S)Nc2ccc(C[C@H]3CN(CC(=O)O)CCN(CC(=O)O)CCN3CC(=O)O)cc2)CSSC[C@@H](C(N)=O)NC(=O)[C@@H]2CCCN2C(=O)CNC(=O)[C@H](CCC(=O)O)NC(=O)[C@H](CC(=O)O)NC(=O)[C@H](CC(=O)O)NC(=O)CNC(=O)[C@H](CC(C)C)NC(=O)[C@H](Cc2c[nH]cn2)NC(=O)[C@H](CC(C)C)NC(=O)CNC(=O)[C@H](Cc2c[nH]cn2)NC1=O [copper-64 labelled]", "test": "dynamic PET", "test system": "CD rat, myocardial infarction, remote myocardium", "conditions": "intravenous, 18.5 MBq", "measurement": "clearance half-life", "result": "0.347 ± 0.0117 h"}
{"note": "Repeated from above:"}
{"SMILES": "O=C1NC2(CC2)COc2ncc(F)cc2[C@H]2COCCN2c2ccn3ncc1c3n2", "test system": "Sprague-Dawley rat, female, heart", "conditions": "oral, 10 mg/kg/day, 4 weeks, end of treatment", "measurement": "organ-to-brain weight ratio", "result": "67.1 ± 8.36%"}
